Published values gathered from unrelated publications.
Compare with care: the assays were run in different laboratories. Several values in a cell are separate wells, animals, samples, runs or records. Numbers after ± are the reported error.

CC(C)c1c(C(=O)Nc2ccccc2)c(-c2ccccc2)c(-c2ccc(F)cc2)n1CC[C@@H](O)C[C@@H](O)CC(=O)O
triglycerides (cynomolgus monkey, female, serum; 40 mg/kg or 25 mg/kg, day 86, 2064 h): 34.1 mg/dL

CC(C)[C@H](NC(=O)[C@H](Cc1ccc(O)cc1)NC(=O)[C@H](Cc1ccc(O)cc1)NC(=O)[C@@H]1CCCN1C(=O)[C@H](CCC(=O)O)NC(=O)[C@H](CCC(=O)O)NC(=O)[C@H](Cc1c[nH]c2ccccc12)NC(=O)[C@@H]1CCCN1C(=O)[C@@H](NC(=O)[C@H](CCC(N)=O)NC(=O)c1ccc2c(c1)C(=O)OC21c2ccc(O)cc2Oc2cc(O)ccc21)C(C)C)C(=O)N[C@H](C(=O)N[C@@H](CCCCN)C(=O)N[C@@H](CCCCN)C(=O)N[C@@H](CO)C(=O)N[C@@H](CO)C(=O)NCC(=O)NCC(N)=O)C(C)C
share of responses (surgeon confidence in nerve; human head and neck surgery, nerves; 500 mg, improved; reference: white light): 14.2%

CC(=O)N(C(=O)c1cc(C(F)(F)F)cc(C(F)(F)F)c1)c1ccccc1
pseudo-first-order rate constant (HPLC-MS; pH 10.2, with: 50 mM N-α-acetyl-lysine): 3.1 h⁻¹

Cl.N[C@@H](CC1=CCC(O)(c2nncnn2)C=C1)C(=O)O (stereo partly shown)
kobs (iEDDA cycloaddition; aqueous DMSO 25 %; 37 °C, with: TCO-OH 2.2 mM): 0.9 s⁻¹

CN(c1ccccc1)c1nc(-c2ccccc2)no1
IC50 (CoA-CPM signal reduction, CPM fluorescence thiol; cell-free biochemical; assay interference counter-screen, with: CoA replacing acetyl-CoA): > 125 µM

CC(C)[C@H](C(=O)Nc1ccc(C(=O)NO)cc1)c1ccccc1
tumour volume (MRI volumetry; human, left parieto-occipital meningioma; dose not given, day 2037 post-treatment): 0.25 cm³

CCOC(=O)c1c(NC(=O)CNC(C)C)sc2c1CCCCC2
NREM sleep time (EEG; mouse APP J20; intraperitoneal, 25 mg/kg, first 2 h): 70.1 ± 2.38%

O=C(O)CNC(=O)Cc1ccccc1
sarcomere length (ventricular cardiomyocytes, C57BL/6 mouse; dose not given, 0.16 s): 1.65 µm

CN(C)C(=O)c1cc2cnc(Nc3ccc(N4CCNCC4)cn3)nc2n1C1CCCC1
enrichment score (RNA-seq GSEA, item: HALLMARK_BILE_ACID_METABOLISM gene set; MB002 tumour; concentration not given; reference: vehicle, direction not given): 0.255

C[C@@H](NC(=O)N1C(=O)[C@H](Cc2ccnc(N)c2)[C@H]1C(=O)O)C1CCCCC1
time to ACT Emax (human; iv infusion, 2.25 mg/kg/h, 24 h): 24 h

COc1cc(Nc2ncc3c(n2)-c2ccc(Cl)cc2C(c2c(F)cccc2OC)=NC3)ccc1C(=O)O
median response score (mouse, NB-1771 neuroblastoma xenograft; 10.4 mg/kg; direction not given): 10

CC(C)n1c(C2CCNCC2)nc2c([N+](=O)[O-])c(Br)c(Br)cc21
cycles to maximum reduction (FLT3-mutated AML patients, bone marrow blasts; all dose levels): 5 cycles

CC(=O)Oc1cc2c(s1)CCN(C(C(=O)C1CC1)c1ccccc1F)C2 (stereo not shown)
patients with IPA above 90% (light transmittance aggregometry; human patients, platelet-rich plasma; dose not given, 2 h, with: ADP 20 µM; reference: patients): 0%

C[C@H](Oc1ccc(Br)cc1-c1ccon1)C(=O)O
maximum voluntary grip contraction (handgrip dynamometry; healthy human males; 400 mg once daily, multiple doses; reference: placebo): 1.81 kg

O=[N+]([O-])c1c(NC2CS(=O)(=O)c3ccccc32)nc2ccccn12 (stereo not shown)
IC50 (CoA-CPM signal reduction, CPM fluorescence thiol; cell-free biochemical; assay interference counter-screen, with: CoA replacing acetyl-CoA): > 125 µM

OC(CCN1CCCCC1)(c1ccccc1)C1CC2C=CC1C2 (stereo not shown)
EEG Alpha2-power Pz-O2 (resting-state EEG; healthy elderly humans; oral, 2 mg, eyes open, LS mean): 3 µV²

C[C@H]1O[C@@H](O[C@H]2CC[C@@]3(C)[C@@H](CC[C@]4(C)[C@@H]3C=C[C@]35OC[C@@]6(CCC(C)(C)C[C@H]63)[C@@H](O)C[C@]54C)[C@]2(C)CO)[C@H](O)[C@@H](O[C@@H]2O[C@H](CO)[C@@H](O)[C@H](O)[C@H]2O)[C@H]1O
AST activity (pair-fed control mice, no ethanol, plasma; oral, 15 mg/kg/day): 35.5 U/L and 37.5 U/L and 44.5 U/L and 39 U/L and 45.2 U/L

Fc1cccc(Nc2nc(-c3ccccc3)no2)c1
IC50 (CoA-CPM signal reduction, CPM fluorescence thiol; cell-free biochemical; assay interference counter-screen, with: CoA replacing acetyl-CoA): > 125 µM

CC(C)NCC(O)c1ccc(O)c(O)c1 (stereo not shown)
sarcomere length (ventricular cardiomyocytes, C57BL/6 mouse; dose not given, 0.676 s): 1.72 µm

Cc1n[nH]c2ccc(-c3cc(OC[C@@H](N)Cc4ccccc4)cnc3-c3ccoc3)cc12
log2 fold change (kinase binding, competitor, MIB/MS competition, item: SSK2; Candida albicans cell lysate; 10 µM; reference: DMSO): -2.24

O=S1(=O)C=C(Oc2ccc(F)cc2)c2ccccc21
IC50 (CoA-CPM signal reduction, CPM fluorescence thiol; cell-free biochemical; assay interference counter-screen, with: CoA replacing acetyl-CoA): > 125 µM

CN(C)C(=O)Nc1cccc(-c2ccc(N(C)C)cc2)c1
relative mRNA level (qPCR, item: Srebf1; high-fat diet-fed mice, liver; dose not given; reference: vehicle-treated obese mice): 0.998 and 0.82 and 1.05 and 1.21 and 0.914

Cc1cc(Nc2cc3ncccc3c(N[C@@H]3C[C@H]4CC[C@@H](C3)N4CCC#N)n2)n[nH]1
change in endoscopic subscore (moderate-severe ulcerative colitis patients; 80 mg, day 28, Modified Mayo; reference: baseline, direction not given): -0.3

c1ccc(-c2n[nH]cc2-c2ccnc3ccccc23)nc1
log2 fold change (kinase binding, competitor, MIB/MS competition, item: PKH2; Candida albicans cell lysate; 10 µM; reference: DMSO): 1.69

C=CC(=O)Nc1cc(Nc2nccc(Nc3cc(Cl)c(F)cc3C(C)(C)O)n2)c(OC)cc1N1CC[C@@H](N(C)C)C1
confirmed objective response rate (human, EGFR exon20ins NSCLC; dose not given, unknown subtype): 0%

CC(C)C[C@H](NC(=O)[C@H](CC(C)C)NC(=O)C(C)(C)NC(=O)[C@@H](NC(=O)[C@H](CCC1CCCCC1)NC(=O)[C@@H]1CCCN1C(=O)c1ccc(F)cc1)[C@H](O)C(C)C)C(=O)NC(C)(C)C(=O)NC(C)(C)C(=O)NCCC(=O)N[C@@H](C)CN(C)C
calcein leakage (small unilamellar vesicles; concentration not given): 36.4%

CO[C@H]1CC[C@H](N2C(=O)CNc3ncc(-c4ccc(C(C)(C)O)nc4)nc32)CC1
p4EBP1 change from baseline (flow cytometry; stimulated T cells, human, blood; 30 mg single dose, 5 h, median; reference: baseline): -35.9%

CN1CC(Oc2cnc(C#N)cc2-c2ccn3nc(NC(=O)C4CC4)cc3c2)C1
splenomegaly (Rag2-/- mouse, anti-CD40 colitis; dose not given, day 7): decreased

Cn1cc(Nc2nc(N)nc(-c3cccc(-n4ccc5cc(C6CC6)cc(F)c5c4=O)c3CO)n2)cn1
inhibition (CD63 upregulation, anti-IgE-induced; human, multiple ascending dose, whole blood basophils ex vivo; 50 mg twice daily, day 14, 2 h): 69.7%

Cn1cc(Nc2nccc(-c3ccc4c(c3)CN(C3COC3)CC[C@H]4NC(=O)c3cn(C(C)(C)C)nn3)n2)cn1
pathway activation z-score (item: dopamine-DARPP32 in cAMP signaling; splenic B cells, mice; 30 mg/kg, IgD-activated in vivo; reference: vehicle, direction not given): 3.77

NC(=O)c1cnc2[nH]ccc2c1N[C@@H]1[C@@H]2CC3C[C@H]1C[C@@](O)(C3)C2
percent change (CD4+ CD28+ naive T cells, flow cytometry; Japanese humans, peripheral blood; 60 mg single dose; reference: baseline): -1.57%

COc1ccc2c(c1)c(CC(=O)O)c(C)n2C(=O)c1ccc(Cl)cc1
ABTS radical cation scavenging (ABTS; DMSO; concentration not given): 79.64 ± 0.3%

O=C(OC(C(F)(F)F)C(F)(F)F)N1CCN(Cc2cccc(Oc3ccccc3)c2)CC1
k3 (PET blocking study; rhesus monkey, brain HIP; 0.03 mg/kg, compound pretreatment, with: [18F]T-401 tracer): 0.19 min⁻¹

Cc1cc(/C=C2\Oc3cc(OCC4CC4)ccc3C2=O)cc(C)c1OC(C)(C)C(=O)O
NAFLD activity score (db/db mice on MCD diet; oral, 30 mg/kg daily, 45 days; reference: untreated model): decreased

For quick reference, copied from above:
OC(CCN1CCCCC1)(c1ccccc1)C1CC2C=CC1C2 (stereo not shown)
EEG Alpha2-power Pz-O2 (resting-state EEG; healthy elderly humans; oral, 2 mg, eyes open, LS mean): 3 µV²

C[C@H]1O[C@@H](O[C@H]2CC[C@@]3(C)[C@@H](CC[C@]4(C)[C@@H]3C=C[C@]35OC[C@@]6(CCC(C)(C)C[C@H]63)[C@@H](O)C[C@]54C)[C@]2(C)CO)[C@H](O)[C@@H](O[C@@H]2O[C@H](CO)[C@@H](O)[C@H](O)[C@H]2O)[C@H]1O
AST activity (pair-fed control mice, no ethanol, plasma; oral, 15 mg/kg/day): 35.5 U/L and 37.5 U/L and 44.5 U/L and 39 U/L and 45.2 U/L

Fc1cccc(Nc2nc(-c3ccccc3)no2)c1
IC50 (CoA-CPM signal reduction, CPM fluorescence thiol; cell-free biochemical; assay interference counter-screen, with: CoA replacing acetyl-CoA): > 125 µM

CC(C)NCC(O)c1ccc(O)c(O)c1 (stereo not shown)
sarcomere length (ventricular cardiomyocytes, C57BL/6 mouse; dose not given, 0.676 s): 1.72 µm
